Experimental data pooled from the literature.
Numbered parts are unrelated; each lists some results of a single study. Positions count from the first letter of the parent shown.

Set 1
Target: CCND3, cyclin fold, Cln2 fusion (human)
Method: yeast growth competition, sequencing
Sample: yeast
Notes: weak parent motif
Baseline: not given
Direction: higher = stronger binding
Starting sequence: PKN2 docking peptide (human); VSAVQKLDFSDTM
Under “normalised enrichment score”, `S2H` is recorded as 0.072.
For `F9L`, “normalised enrichment score” read 0.0122.
`V1G` — result for “normalised enrichment score”: 0.103.
`K6M`: “normalised enrichment score” 0.153.
Under “normalised enrichment score”, `A3I` is recorded as 0.0762.

Set 2
Target: ABI1, truncated, D143A, DHFR fusion (Arabidopsis thaliana)
Method: DHFR PCA, deep sequencing
Sample: yeast
Notes: methotrexate growth selection, single substitutions
With: (+)-ABA 200 µM
Baseline: wild-type fitted maximum
Direction: higher = stronger binding
Starting sequence: PYL1, truncated, DHFR fusion (Arabidopsis thaliana); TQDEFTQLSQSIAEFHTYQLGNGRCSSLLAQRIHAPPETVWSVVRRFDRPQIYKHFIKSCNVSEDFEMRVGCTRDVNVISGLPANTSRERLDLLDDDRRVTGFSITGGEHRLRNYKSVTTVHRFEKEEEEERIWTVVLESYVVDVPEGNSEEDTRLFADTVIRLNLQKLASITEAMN
`Q31I`: “relative binding score” 72%.
`D65E`: “relative binding score” 98.8%.
Under “relative binding score”, `A35Y` is recorded as 3.75%.
Under “relative binding score”, `D97K` is recorded as 106%.
For `E109W`, “relative binding score” read 53.5%.
`L156N`: “relative binding score” 90.2%.

Set 3
Target: Sal-like protein 4, full length isoform B (SALL4, Homo sapiens, UniProt Q9UJQ4-2, residues 1-616)
Method: universal PBM
Molecule type: double-stranded DNA, one strand shown
Sample: in vitro
Tested at: not given
Notes: 8-mer, flanks averaged, mean of replicates
Direction: higher = stronger binding
The E-score of `GGCACAGA` is reported as -0.211.
`ATCATTTC` gave an E-score of 0.286.
With `ATGCGATA` the E-score was 0.195.
`CGACACAG` gave an E-score of -0.129.
`AAAGATTA` gave an E-score of 0.289.
The E-score of `ATTAGCAC` is reported as 0.104.
`TACGTCCA` has an E-score of 0.0151.
`CACCCAAC` gave an E-score of -0.154.
For `GAGTCCCA`, the E-score was -0.194.
`AAGGATCG` gave an E-score of 0.0919.
The E-score of `ATGCGATC` is reported as -0.0343.

Mixed results
`PhoQ, residues 284 288 289 292 302 303 TLMATV` gave a fold induction of 23.1 (PhoP, residues 12 14 15 18 19 GQALL (Escherichia coli, UniProt P23836); Sort-seq, refers to: YFP reporter; E. coli; PhoQ-PhoP variant library, with: 10 µM Mg2+; baseline: high Mg2+ state, higher = stronger signaling).

For quick reference, copied from above (set 2):
`Q31I`: “relative binding score” 72%.
`D65E`: “relative binding score” 98.8%.
Under “relative binding score”, `A35Y` is recorded as 3.75%.
Under “relative binding score”, `D97K` is recorded as 106%.
